Published values gathered from unrelated publications.
Each line is one published result; not all experiments were run side by side.

SMILES	assay	test system	setting	quantity	result
C[C@@H](Nc1cc(F)cc(F)c1)c1cc(C(=O)N(C)C)cc2c(=O)cc(N3CCOCC3)oc12	item: Diarrhea	advanced solid tumour patients	oral, dose not given, dose finding	patients discontinuing for AE	3.2%
COc1cc(Nc2ncc3c(n2)-c2ccc(Cl)cc2C(c2c(F)cccc2OC)=NC3)ccc1C(=O)O	item: increased ALT, all grades	cancer patients, phase 1/2	oral, dose not given, with: pembrolizumab	patients with adverse event	25%
C[C@@H](c1ccc2nccn2c1)n1nnc2ncc(-c3cnn(C)c3)nc21	item: treatment-related grade ≥3 Dyspnea	EGFR-mutant MET-altered NSCLC	oral, dose not given, all	patients with adverse events	1%
COc1ccc([C@@H](O)c2cc(-c3ncnc4cc(N5CCOCC5)ccc34)c(F)cc2Cl)nn1	item: Lymphopenia	locally advanced rectal cancer patients	dose not given, all dose groups, with: capecitabine plus radiotherapy	patients with TEAE	21%
CNC(=O)c1ccc(-c2cnc3ncc(Cc4ccc5ncccc5c4)n3n2)cc1F	item: Constipation	other cancer patients	oral, 600 mg twice daily, expansion cohort, grade 3-4	patients with adverse event	0%
Cc1cc(NC2CCN(C(=O)OC3CCN(C(=O)/C=C/CN(C)C)C3)CC2)n2ncc(C(C)C)c2n1 (stereo not shown)	–	patients with advanced solid tumours	dose not given, QD arm, grade 3 or higher	patients with Hypotension	2%
FC(F)(F)c1ccc(CNc2ccc(Cc3c[nH]c4ncc(Cl)cc34)cn2)cn1	item: blood alkaline phosphatase increased	non-TGCT solid tumour patients	oral, 1000 mg/day, all grades	patients with treatment-related adverse event	2%
CCO[C@H]1CCN(Cc2c(OC)cc(C)c3[nH]ccc23)[C@H](c2ccc(C(=O)O)cc2)C1	item: Nasopharyngitis	PNH patients, active haemolysis	oral, 200 mg twice daily, extension phase	patients with adverse event	0%
O=C(Nc1nc2cccc(-c3ccc(CN4CCS(=O)(=O)CC4)cc3)n2n1)C1CC1	–	rheumatoid arthritis patients	oral, 100 mg twice daily, 4 weeks, regardless of relatedness	patients with nervous system disorders	8.3%
NC(=O)N1c2ccccc2C=Cc2ccccc21	–	male patients	oral, dose not given, on-treatment adverse events	patients with upper abdominal pain	0%
Cc1cc(-c2nnc(N)nc2-c2ccc(F)cc2)cc(Cl)n1	item: Hypothyroidism	IO-naive colorectal cancer patients	oral, dose not given, treatment-related, grade ≥3	patients with immune-mediated AE	0%
CCOc1c([C@H](C)n2nc(C)c3c(N)ncnc32)cc(Cl)c(F)c1[C@@H]1CNC(=O)C1	item: PR > 220 ms	previously treated B-cell malignancy	oral, dose not given, all doses	patients with high heart rate	7.7%
COc1cc2nccc(Oc3ccc(NC(=O)c4cc5c(n(-c6ccccc6)c4=O)CCCC5=O)nc3)c2cc1OC	CTCAE	patients with relapsed/refractory AML	oral, 6 mg once daily	patients, with TEAEs, drug-related grade ≥3	0%

Some of these lines once more:
SMILES	assay	test system	setting	quantity	result
FC(F)(F)c1ccc(CNc2ccc(Cc3c[nH]c4ncc(Cl)cc34)cn2)cn1	item: blood alkaline phosphatase increased	non-TGCT solid tumour patients	oral, 1000 mg/day, all grades	patients with treatment-related adverse event	2%
CCOc1c([C@H](C)n2nc(C)c3c(N)ncnc32)cc(Cl)c(F)c1[C@@H]1CNC(=O)C1	item: PR > 220 ms	previously treated B-cell malignancy	oral, dose not given, all doses	patients with high heart rate	7.7%
